Measurements pooled from the literature.
Parts stem from different laboratories: compare values within a part only.

Series 1 — technique: protein binding microarray; molecule type: double-stranded DNA, one strand shown; matrix: in vitro; tested at: not given; baseline: not given; direction: higher = stronger binding; quantity: E-score
Target: Histone acetyltransferase KAT6A, winged helix 1, GST fusion (KAT6A, Homo sapiens, UniProt Q92794, residues 1-85)
Notes: 8-mer, flanks averaged, mean of 2 arrays, mostly near background
Target sequence (chain): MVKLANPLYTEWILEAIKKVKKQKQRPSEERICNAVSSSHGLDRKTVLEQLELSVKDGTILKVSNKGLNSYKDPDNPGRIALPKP
Strand = AGCCTCGG; value = 0.0566
Strand = GCGGTACA; value = 0.345
Strand = AGATATAA; value = -0.0533
Strand = AGAACCGG; value = 0.27
Strand = GCGAGAGC; value = 0.167
Strand = AGTGGCAC; value = -0.0452
Strand = AGGACGTA; value = -0.0723
Strand = ACTAGCGA; value = 0.0887
Strand = CTATCTAC; value = -0.141
Strand = AAACGATC; value = -0.19
Strand = ATAAACAG; value = -0.216
Strand = GCCTCACA; value = -0.18
Strand = TATTTCGA; value = -0.0668
Strand = ATAGAAAT; value = -0.073
Strand = CGATCCCG; value = 0.283
Strand = CGATTGAG; value = -0.0615
Strand = ACAACTTA; value = -0.172
Strand = GATGGCGA; value = 0.0143
Strand = TCGGTACA; value = 0.0967
Strand = AACCCGAT; value = 0.0777
Strand = AACAGCAT; value = -0.0743
Strand = GGCATATA; value = 0.0162
Strand = GAGAGTAA; value = -0.112
Strand = CCTCGGCG; value = 0.402
Strand = AAGCTAGC; value = -0.0419

Series 2 — technique: aptamer microarray, sandwich; molecule type: DNA with 2'F-ANA; matrix: in vitro; tested at: 200 nM; with: Cy3 exosite-II aptamer, 400 nM; direction: higher = stronger binding; quantity: mean fluorescence intensity; strand: GGTTGGTGTGGTTGG
Target: Prothrombin, mature alpha-thrombin (F2, Homo sapiens, UniProt P00734)
Notes: whole 15-mer aptamer, many near background
Modification = 2'F-ANA at 2 5 6 7 9 10 11 13 14; value = 47.5 a.u.
Modification = 2'F-ANA at 3 5 6 7 10 11 12 15; value = 61.1 a.u.
Modification = 2'F-ANA at 10 12 13 14; value = 142 a.u.
Modification = 2'F-ANA at 2 3 4 7 8 10 11 12 13 15; value = 280 a.u.
Modification = 2'F-ANA at 2 3 4 5 7 8 9 10 13 14 15; value = 50.6 a.u.
Modification = 2'F-ANA at 2 3 4 5 6 7 8 9 11 12 13 14 15; value = 54.1 a.u.
Modification = 2'F-ANA at 1 2 7 8 13 15; value = 200 a.u.
Modification = 2'F-ANA at 4 6 8 10 13 14; value = 66 a.u.
Modification = 2'F-ANA at 1 5 8 9 13 14 15; value = 60.5 a.u.
Modification = 2'F-ANA at 1 6 8 13 14 15; value = 124 a.u.
Modification = 2'F-ANA at 3 4 5 6 8 9 11 12; value = 161 a.u.
Modification = 2'F-ANA at 2 4 5 8 11 13 14; value = 45.1 a.u.
Modification = 2'F-ANA at 5 6 7 8 9 10 12; value = 51.7 a.u.
Modification = 2'F-ANA at 2 3 4 5 6 7 8 10 11 12 14 15; value = 56.1 a.u.
Modification = 2'F-ANA at 1 2 6 8 10 11 12 14 15; value = 52.2 a.u.
Modification = 2'F-ANA at 4 5 8 9 10 13 15; value = 46 a.u.
Modification = 2'F-ANA at 2 3 7 8 9 10 12 15; value = 456 a.u.
Modification = 2'F-ANA at 3 5 8 9 10 11 12; value = 69.3 a.u.
Modification = 2'F-ANA at 4 5 10 14 15; value = 58.9 a.u.
Modification = 2'F-ANA at 2 3 5 6 8 11 12 14; value = 54.3 a.u.
Modification = 2'F-ANA at 2 7 13 14; value = 158 a.u.
Modification = 2'F-ANA at 1 2 3 4 6 13 14; value = 67.4 a.u.
Modification = 2'F-ANA at 1 4 7 8 9 10 14; value = 245 a.u.
Modification = 2'F-ANA at 3 6 7 8 14; value = 644 a.u.
Modification = 2'F-ANA at 2 3 5 13; value = 86.2 a.u.

Series 3 — technique: RNA Bind-n-Seq; molecule type: RNA; matrix: in vitro; tested at: 365 nM; baseline: no-protein control; direction: higher = stronger binding; quantity: RBNS enrichment (R)
Target: RNA binding protein fox-1 homolog 2, RRM domain, GST-SBP tag (RBFOX2, Homo sapiens, UniProt O43251-10, residues 100-194)
Notes: natural RNA segment, single round, ends assumed
Strand = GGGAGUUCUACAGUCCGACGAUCGAUAUUAAAAAAGUAGAAUAUUUUGUGUUUAUCUCCCACACAGCCCCAAAUUCUUUUGUUGUGUGUGCGAAGGGGGUUUUGCGCACUGUGCCAAGCCUUGUCCACUGGAAUGGAAUUCUCGGGUGCCAA; value = 2.91
Strand = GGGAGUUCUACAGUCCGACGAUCUCUUUGUUUUUUUUAAAAAAAACAAAAACAGAGGCCAGAACUAUUGUUUGAAAUUAGUAACAAUGCUGCAUCUAGAUUGGAGUGCUGCCCAGCCAUAGAAGCAGAGCUGAUGGAAUUCUCGGGUGCCAA; value = 0.391
Strand = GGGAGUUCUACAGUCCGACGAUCGGGCUGCAGAUAAAAAUAGGCAGGAAUCAAAUGACUAAGAAUGUAAUAGGGAAGAAGUGCCCUGCCUGCCAGCUUGGGAGUGAUUUGUACCUGUGUAUUUAUCCUUGAUCUGGAAUUCUCGGGUGCCAA; value = 3.01
Strand = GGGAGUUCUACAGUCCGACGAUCGCUUAAGGAAUAUCCCUGUCUUCUGUCUUUUGGUUUUCGUUUGUUCGUCUUUUAUUUUCUUGUGGCAUUAUUAGGCAGGUAAGCUUGAUGUAGACCAUUGACUGACCCCAUGGAAUUCUCGGGUGCCAA; value = 1.14
Strand = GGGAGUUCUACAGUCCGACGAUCUCCUGUGGAGGGAGGAGGGUGUACGUUCGUUUACUAUGGAUAGUUUUUCCUUUGAAUUAAAUUGUAGCGUGUCAGGCUUUCUUUUUUCUUUUCUUUUCCUUUUUUUAAACUGGAAUUCUCGGGUGCCAA; value = 1.18
Strand = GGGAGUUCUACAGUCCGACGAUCUUCCAAGGCCUUGCCCUCAGAGCAGGGGCCUGGGCACUCUCACUCACGUGGCCUGUCUCCAGAUCCCUGUCUGAUUUCUGAAUGUAAAGAGGCUUUUUGUUUUGUUUUUGUGGAAUUCUCGGGUGCCAA; value = 1.79
Strand = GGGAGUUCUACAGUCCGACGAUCUUGGCUGUGUUUUAGACAGCUCCAGAAUAUAUUGUUCAGCGCAGUAAAAUAUAUUUGGAAUUUGAUGAACCAAAAAUGUGAUUUCAGAUGACUAUUUUGUGACUUUCUUAUGGAAUUCUCGGGUGCCAA; value = 0.46
Strand = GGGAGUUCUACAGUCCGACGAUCUUUACCUGUGAGGGGCUCCAUGCUCCAGCAGCAGAGCAGGUUCUAGUGACAAUUCAACUUUUUAUGCUAUGACCAGGGGUGGAUCUAAAUUUUAUGGGGCUGAAAGCUUGUGGAAUUCUCGGGUGCCAA; value = 1.35
Strand = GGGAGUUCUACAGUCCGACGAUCAGGCACCUCACUGGGGAUUAUGACCAGGGUCUAGACGAGCUUGAGUCUGAAUUGAGUUUGUAUUUCUAGCACCCUGGGUUUUUACAUGUUUGCUCUUUUUGUUUUUGUUUUGGAAUUCUCGGGUGCCAA; value = 1.19
Strand = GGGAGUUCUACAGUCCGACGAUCGCCUCAUUUGCAAGAUGUGCAAGCUUAAUGUCUUCUUCACCAUAAAGCAACAUGGAAAUAACCAUAGACAAAACUUAUUUGGGUAACUAGAAACCAAUGAGCUUUAGAUUUGGAAUUCUCGGGUGCCAA; value = 0.463
Strand = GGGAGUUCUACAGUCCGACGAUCCUGGUCUGCUCAUGCUUCAUUGUCCAGAAAGCAGCAGGAAAUUGUAGUUCCGUUGUCAUCAAGCAGGAAGCAAAUGCAACACCGACCAAGGCAGUUUAGGUCAAGAGCUGUGGAAUUCUCGGGUGCCAA; value = 0.434
Strand = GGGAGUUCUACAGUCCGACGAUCGGUCCCUCCUGUCCCCCCUCUUCAUCCCUUGACAAAUGGGCACCAGGCUUCUGCUCUCCUCAAAGCCAUACCCCCGCCUUUGGGCGGGCAUAGAGGGGUAGUGGAUGCUAUGGAAUUCUCGGGUGCCAA; value = 0.383

Series 4 — technique: protein-binding microarray; molecule type: double-stranded DNA, one strand shown; matrix: in vitro; tested at: 250 nM; notes: 60-bp whole probe; with: salmon DNA 0.4 mg/ml; baseline: random background probes; direction: higher = stronger binding; quantity: log fluorescence; all sequences stand within: GCCTAGCAC … GTCTTGATTCGCTTGACGCTGCTG
Target: Interferon regulatory factor 7, full length, phosphomimetic (IRF7, Homo sapiens, UniProt Q92985, residues 1-503, S101K/S471D/S472D/S475D/S476D/S477D/S483D/S484D/S487D)
UniProt Q92985, sequence (whole entry, unmodified, looked up): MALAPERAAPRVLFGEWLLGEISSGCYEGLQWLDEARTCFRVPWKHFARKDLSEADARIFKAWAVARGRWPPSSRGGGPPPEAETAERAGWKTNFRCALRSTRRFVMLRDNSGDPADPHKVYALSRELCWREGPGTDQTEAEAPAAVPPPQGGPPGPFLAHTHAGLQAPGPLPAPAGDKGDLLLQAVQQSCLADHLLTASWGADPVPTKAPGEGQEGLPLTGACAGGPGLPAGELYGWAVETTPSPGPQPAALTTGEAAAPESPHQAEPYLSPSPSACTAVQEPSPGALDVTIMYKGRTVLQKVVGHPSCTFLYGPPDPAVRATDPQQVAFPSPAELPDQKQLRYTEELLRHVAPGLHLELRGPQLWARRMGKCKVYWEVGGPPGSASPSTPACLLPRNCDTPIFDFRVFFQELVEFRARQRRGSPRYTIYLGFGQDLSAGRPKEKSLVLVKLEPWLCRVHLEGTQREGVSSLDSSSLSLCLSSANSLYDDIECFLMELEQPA
Strand = TTAGGACTGGACACTGAGTTAGTGCTA; value = -0.362 z-score
Strand = TCAGGACTGACTCTTCAGACTGTGCTA; value = -0.789 z-score
Strand = AGGGTCATCCATCTGAACCAGTGCTAG; value = -0.447 z-score
Strand = GACGATTCCCGTTTCGAGACGTGCTAG; value = 4.62 z-score
Strand = GACGATCTCCTTTTCCTGACGTGCTAG; value = 0.551 z-score
Strand = GACGGTGTCGGGACTGGGGACGTGCTA; value = -0.66 z-score
Strand = TCATTTTCATTTTCTGAAACTGTGCTA; value = 3.37 z-score
Strand = GACGAACTGAGTCTAGAGACGTGCTAG; value = -0.294 z-score
Strand = TTAGGTATCTACACTGGGTTAGTGCTA; value = -0.516 z-score
Strand = GACGATATCGCGTATCGAGACGTGCTA; value = 0.317 z-score
Strand = GACGGACTGGACACGGGGGACGTGCTA; value = 0.138 z-score
Strand = GAGGAACTGAGTCTCGAGACGTGCTAG; value = 0.297 z-score
Strand = GAGAAAATGATTTTTTTCATGTGCTAG; value = 0.0589 z-score
Strand = GGACGGCAGTGCACACAGTGGTGCTAG; value = -1.07 z-score
Strand = CACGGTCTCCTTTTCCTGACGTGCTAG; value = 1.36 z-score
Strand = GACGGTAGCCTTTTCCTGACGTGCTAG; value = -0.234 z-score
Strand = TTAGGACTGGGACTGGGTAAGTGCTAG; value = -0.224 z-score
Strand = TTAAATTTCAGTTCCGATTAGTGCTAG; value = 2.03 z-score
Strand = GACGGTAGCGGGTATCGGGACGTGCTA; value = -0.748 z-score
Strand = TTAGATCTCTGACTGGATTAGTGCTAG; value = -0.0642 z-score
Strand = TTAGGACTGGGTATCGGTTTGTGCTAG; value = 2.98 z-score
Strand = GCCGAACTGGGGTATCGAGACGTGCTA; value = -0.536 z-score
Strand = GACGGTTTCGGGTTTCCGGACGTGCTA; value = 11.7 z-score
Strand = TTAGATTTCAGTCTCGCTTAGTGCTAG; value = 1.51 z-score
Strand = AAGGAAATCGGTGATCAGTCTGTGCTA; value = -0.506 z-score

Excerpt of the above (series 2):
Modification = 2'F-ANA at 3 5 8 9 10 11 12; value = 69.3 a.u.
Modification = 2'F-ANA at 2 3 4 7 8 10 11 12 13 15; value = 280 a.u.
Modification = 2'F-ANA at 2 3 5 13; value = 86.2 a.u.
Modification = 2'F-ANA at 1 2 3 4 6 13 14; value = 67.4 a.u.
Modification = 2'F-ANA at 1 2 7 8 13 15; value = 200 a.u.
Modification = 2'F-ANA at 2 3 5 6 8 11 12 14; value = 54.3 a.u.
Modification = 2'F-ANA at 4 6 8 10 13 14; value = 66 a.u.
Modification = 2'F-ANA at 4 5 10 14 15; value = 58.9 a.u.
Modification = 2'F-ANA at 3 4 5 6 8 9 11 12; value = 161 a.u.
Modification = 2'F-ANA at 2 3 4 5 6 7 8 10 11 12 14 15; value = 56.1 a.u.
Modification = 2'F-ANA at 3 5 6 7 10 11 12 15; value = 61.1 a.u.
Modification = 2'F-ANA at 2 5 6 7 9 10 11 13 14; value = 47.5 a.u.
Modification = 2'F-ANA at 5 6 7 8 9 10 12; value = 51.7 a.u.
Modification = 2'F-ANA at 1 6 8 13 14 15; value = 124 a.u.
Modification = 2'F-ANA at 1 4 7 8 9 10 14; value = 245 a.u.
